Measured values pooled from the literature.
Lines come from different studies, so protocols differ. pIC50, pKd: −log10 of the molar value.
T1: DNA hairpin, 8 bp stem, HEG linker; GTTATATCTTGATATAAC
T2: DNA hairpin; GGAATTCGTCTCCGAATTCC
T3: DNA hairpin, HEG linker; GTTATATCTTGATATAAC
T4: DNA hairpin, hairpin, T5 loop; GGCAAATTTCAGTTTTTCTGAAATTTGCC
T5: DNA hairpin, hairpin, TTTT loop; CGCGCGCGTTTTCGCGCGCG
T6: DNA hairpin; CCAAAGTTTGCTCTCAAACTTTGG
T7: DNA hairpin, inosine at 6; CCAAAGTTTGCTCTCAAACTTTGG

| target | assay | setting | scale | quantity | result | Compound |
| --- | --- | --- | --- | --- | --- | --- |
| T1, DNA hairpin, 8 bp stem, HEG linker | thiazole orange displacement, competitor, fluorescent indicator displacement | pH 7.2, KCl 100 mM | – | pIC50 | < 5.60 | C[n+]1ccc(/C=N/NC(=O)c2cccc(C(=O)N/N=C/c3cc[n+](C)c4ccccc34)n2)c2ccccc21 |
| T2, DNA hairpin | UV melting | 6 µM, pH 6.25, Na+ 100 mM | reference: target alone, higher = more stabilisation | melting temperature shift | 15.1 °C | N=C(N)c1ccc(-c2ncc(-c3cnc(-c4ccc(C(=N)N)cc4)s3)s2)cc1 |
| T3, DNA hairpin, HEG linker | Thiazole Orange displacement, competitor, fluorescent indicator displacement | pH 7.2, KCl 100 mM | – | pIC50 | < 5.60 | C[n+]1ccc(/C=N/NC(=O)c2cncc(C(=O)N/N=C/c3cc[n+](C)c4ccccc34)n2)c2ccccc21 |
| T4, DNA hairpin, hairpin, T5 loop | SPR | 25 °C, NaCl 100 mM | – | pKd | 6.74 | N=C(N)c1ccc(NCc2cccc(CNc3ccc(C(=N)NCc4ccc(CNC(=N)c5ccc(NCc6cccc(CNc7ccc(C(=N)N)cc7)c6)cc5)cc4)cc3)c2)cc1 |
| T5, DNA hairpin, hairpin, TTTT loop | BLI | pH 7.04, Na+ 100 mM | – | pKd | 6.32 | [Ru+2].[Ru+2].c1cnc2c(c1)c1nc(-c3ccc(OCCOCCOCCOCCOc4ccc(-c5nc6c7cccnc7c7ncccc7c6[nH]5)cc4)cc3)[nH]c1c1cccnc12.c1cnc2c(c1)ccc1cccnc12.c1cnc2c(c1)ccc1cccnc12.c1cnc2c(c1)ccc1cccnc12.c1cnc2c(c1)ccc1cccnc12 |
| T2, DNA hairpin | SPR | pH 6.25, 25 °C, Na+ 100 mM | – | pKd | 5.91 | N=C(N)c1ccc(-c2ccc(-c3ccc(-c4ccc(C(=N)N)cc4)[se]3)[se]2)cc1 |
| T6, DNA hairpin | SPR steady state | pH 7.4, 25 °C, NaCl 100 mM | – | pKd | 6.73 | N=C(N)c1ccc(OCc2nc3ccc(-c4ccc(C(=N)N)cc4)nc3[nH]2)cc1 |
| T5, DNA hairpin, hairpin, TTTT loop | BLI | pH 7.04, K+ 100 mM | – | pKd | 5.58 | [Ru+2].[Ru+2].c1cnc2c(c1)c1nc(-c3ccc(OCCOCCOCCOc4ccc(-c5nc6c7cccnc7c7ncccc7c6[nH]5)cc4)cc3)[nH]c1c1cccnc12.c1cnc2c(c1)ccc1cccnc12.c1cnc2c(c1)ccc1cccnc12.c1cnc2c(c1)ccc1cccnc12.c1cnc2c(c1)ccc1cccnc12 |
| T7, DNA hairpin, inosine at 6 | SPR kinetic fit | pH 7.4, 25 °C, NaCl 100 mM | – | pKd | 8.00 | N=C(N)c1ccc(COc2ccc3nc(-c4ccc(C(=N)N)cc4)[nH]c3n2)cc1 |
| T5, DNA hairpin, hairpin, TTTT loop | BLI | pH 7.04, K+ 100 mM | – | pKd | 5.94 | [Ru+2].[Ru+2].c1cnc2c(c1)c1nc(-c3ccc(OCCOCCOc4ccc(-c5nc6c7cccnc7c7ncccc7c6[nH]5)cc4)cc3)[nH]c1c1cccnc12.c1cnc2c(c1)ccc1cccnc12.c1cnc2c(c1)ccc1cccnc12.c1cnc2c(c1)ccc1cccnc12.c1cnc2c(c1)ccc1cccnc12 |

Excerpt of the above:
| target | assay | setting | scale | quantity | result | Compound |
| --- | --- | --- | --- | --- | --- | --- |
| T6, DNA hairpin | SPR steady state | pH 7.4, 25 °C, NaCl 100 mM | – | pKd | 6.73 | N=C(N)c1ccc(OCc2nc3ccc(-c4ccc(C(=N)N)cc4)nc3[nH]2)cc1 |
